Measurements gathered from unrelated publications.
“And” joins repeats or separate records; there may be more than shown. Numbers after ± are the reported error.
Mcl1 152-308: Mcl1 152-308 (Mus musculus, UniProt P97287)
Chain of UniProt P97287 (whole entry, looked up): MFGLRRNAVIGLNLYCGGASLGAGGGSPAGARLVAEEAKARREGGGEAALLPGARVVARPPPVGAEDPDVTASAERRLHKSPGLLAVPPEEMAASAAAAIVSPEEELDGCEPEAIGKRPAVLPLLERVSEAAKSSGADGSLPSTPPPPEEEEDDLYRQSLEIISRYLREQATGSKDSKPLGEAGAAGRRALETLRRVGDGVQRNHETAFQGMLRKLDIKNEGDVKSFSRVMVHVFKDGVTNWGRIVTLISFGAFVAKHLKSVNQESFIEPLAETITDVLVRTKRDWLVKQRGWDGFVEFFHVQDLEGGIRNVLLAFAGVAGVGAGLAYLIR
Crebbp: Crebbp 340-439 (Mus musculus, UniProt P45481)
Chain of UniProt P45481 (whole entry, looked up): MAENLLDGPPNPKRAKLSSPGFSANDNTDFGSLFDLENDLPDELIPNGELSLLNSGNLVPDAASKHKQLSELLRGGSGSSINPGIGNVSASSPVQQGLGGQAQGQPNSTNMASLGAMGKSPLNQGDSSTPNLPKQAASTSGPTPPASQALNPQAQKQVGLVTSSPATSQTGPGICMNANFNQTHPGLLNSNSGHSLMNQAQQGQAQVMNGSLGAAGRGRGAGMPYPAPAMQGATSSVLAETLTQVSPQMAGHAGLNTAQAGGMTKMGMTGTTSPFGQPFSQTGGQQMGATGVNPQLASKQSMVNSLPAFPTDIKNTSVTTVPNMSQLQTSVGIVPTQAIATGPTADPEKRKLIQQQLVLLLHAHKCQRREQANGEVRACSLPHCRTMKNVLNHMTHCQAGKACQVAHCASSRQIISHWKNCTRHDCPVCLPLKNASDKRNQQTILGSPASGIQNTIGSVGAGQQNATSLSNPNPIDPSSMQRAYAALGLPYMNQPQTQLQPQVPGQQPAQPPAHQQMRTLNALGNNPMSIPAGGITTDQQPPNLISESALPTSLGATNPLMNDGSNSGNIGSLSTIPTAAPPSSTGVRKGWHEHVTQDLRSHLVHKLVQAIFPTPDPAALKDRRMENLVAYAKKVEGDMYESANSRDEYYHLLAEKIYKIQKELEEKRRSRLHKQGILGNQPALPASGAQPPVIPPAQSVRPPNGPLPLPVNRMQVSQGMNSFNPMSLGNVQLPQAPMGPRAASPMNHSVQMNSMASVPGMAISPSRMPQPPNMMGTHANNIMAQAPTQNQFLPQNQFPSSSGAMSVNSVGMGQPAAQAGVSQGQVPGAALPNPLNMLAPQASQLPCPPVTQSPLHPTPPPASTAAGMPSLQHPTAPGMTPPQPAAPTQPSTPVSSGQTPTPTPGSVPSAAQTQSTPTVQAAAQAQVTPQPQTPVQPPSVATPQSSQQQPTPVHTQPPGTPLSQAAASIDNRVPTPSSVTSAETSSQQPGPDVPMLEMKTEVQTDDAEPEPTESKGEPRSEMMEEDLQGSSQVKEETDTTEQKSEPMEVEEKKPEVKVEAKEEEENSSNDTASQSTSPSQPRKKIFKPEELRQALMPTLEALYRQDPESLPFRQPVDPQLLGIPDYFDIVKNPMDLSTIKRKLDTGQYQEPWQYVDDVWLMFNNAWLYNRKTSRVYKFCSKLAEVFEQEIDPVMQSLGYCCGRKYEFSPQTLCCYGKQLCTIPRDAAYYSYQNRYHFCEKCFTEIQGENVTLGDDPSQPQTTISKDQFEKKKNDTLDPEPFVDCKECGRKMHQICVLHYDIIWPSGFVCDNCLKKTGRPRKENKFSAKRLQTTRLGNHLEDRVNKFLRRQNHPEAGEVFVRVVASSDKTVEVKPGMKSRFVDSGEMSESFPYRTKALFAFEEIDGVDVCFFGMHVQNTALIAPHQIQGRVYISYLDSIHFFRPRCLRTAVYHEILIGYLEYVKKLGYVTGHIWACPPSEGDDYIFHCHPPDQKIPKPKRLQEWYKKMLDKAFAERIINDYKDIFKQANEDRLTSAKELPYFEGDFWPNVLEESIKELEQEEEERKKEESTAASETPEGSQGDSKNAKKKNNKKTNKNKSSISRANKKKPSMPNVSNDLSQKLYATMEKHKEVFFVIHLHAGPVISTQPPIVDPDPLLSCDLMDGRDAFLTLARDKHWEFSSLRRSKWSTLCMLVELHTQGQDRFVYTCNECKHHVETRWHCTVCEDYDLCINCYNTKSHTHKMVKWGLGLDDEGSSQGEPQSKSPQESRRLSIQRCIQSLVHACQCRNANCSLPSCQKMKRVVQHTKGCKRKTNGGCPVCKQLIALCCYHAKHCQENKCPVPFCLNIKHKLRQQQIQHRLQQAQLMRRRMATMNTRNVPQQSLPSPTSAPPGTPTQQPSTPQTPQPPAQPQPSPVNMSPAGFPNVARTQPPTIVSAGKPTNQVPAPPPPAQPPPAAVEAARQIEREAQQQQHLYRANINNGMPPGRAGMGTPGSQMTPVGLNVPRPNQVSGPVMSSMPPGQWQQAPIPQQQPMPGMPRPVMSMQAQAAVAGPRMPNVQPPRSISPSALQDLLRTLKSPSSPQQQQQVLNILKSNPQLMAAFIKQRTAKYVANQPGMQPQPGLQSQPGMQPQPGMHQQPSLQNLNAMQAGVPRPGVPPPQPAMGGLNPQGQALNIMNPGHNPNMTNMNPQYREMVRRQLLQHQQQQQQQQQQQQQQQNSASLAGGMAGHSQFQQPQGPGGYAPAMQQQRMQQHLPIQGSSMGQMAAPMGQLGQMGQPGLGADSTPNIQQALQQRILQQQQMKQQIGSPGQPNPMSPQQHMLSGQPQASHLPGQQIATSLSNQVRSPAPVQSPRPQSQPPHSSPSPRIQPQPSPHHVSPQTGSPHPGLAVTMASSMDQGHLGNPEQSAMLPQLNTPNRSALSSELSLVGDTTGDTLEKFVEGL
IRF2BP2: IRF2BP2 fragment (Homo sapiens)
KEAP1: KEAP1 321-609 (Homo sapiens, UniProt Q14145)
Chain of UniProt Q14145 (whole entry, looked up): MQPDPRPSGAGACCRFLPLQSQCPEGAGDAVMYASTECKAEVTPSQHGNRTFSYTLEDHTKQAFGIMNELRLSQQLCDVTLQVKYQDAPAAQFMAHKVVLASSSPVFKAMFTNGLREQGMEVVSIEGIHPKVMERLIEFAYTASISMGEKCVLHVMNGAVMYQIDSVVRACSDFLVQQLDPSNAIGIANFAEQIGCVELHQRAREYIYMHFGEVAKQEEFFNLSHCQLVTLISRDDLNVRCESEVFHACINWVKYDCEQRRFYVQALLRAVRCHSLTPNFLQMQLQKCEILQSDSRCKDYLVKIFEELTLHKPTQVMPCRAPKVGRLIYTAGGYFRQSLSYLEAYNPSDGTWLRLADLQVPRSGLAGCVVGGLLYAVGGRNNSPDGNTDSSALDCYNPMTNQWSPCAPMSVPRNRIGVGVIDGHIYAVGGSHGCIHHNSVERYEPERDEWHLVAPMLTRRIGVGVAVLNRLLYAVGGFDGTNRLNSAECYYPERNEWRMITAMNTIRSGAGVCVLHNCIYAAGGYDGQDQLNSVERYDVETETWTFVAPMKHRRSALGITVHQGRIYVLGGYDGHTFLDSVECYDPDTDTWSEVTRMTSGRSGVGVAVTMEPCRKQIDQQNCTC
BCL2L1: BCL2L1 fragment (Homo sapiens)
PCNA: PCNA (Homo sapiens, UniProt P12004)
Chain of UniProt P12004 (whole entry, looked up): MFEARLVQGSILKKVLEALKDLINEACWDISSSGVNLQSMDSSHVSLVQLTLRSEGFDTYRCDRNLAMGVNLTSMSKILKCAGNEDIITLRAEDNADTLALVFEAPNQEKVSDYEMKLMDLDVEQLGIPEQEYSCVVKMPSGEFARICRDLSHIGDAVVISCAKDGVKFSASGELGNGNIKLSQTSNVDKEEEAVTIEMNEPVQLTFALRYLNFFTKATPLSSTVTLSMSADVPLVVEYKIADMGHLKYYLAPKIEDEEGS
Chain of UniProt Q13283 (whole entry, looked up): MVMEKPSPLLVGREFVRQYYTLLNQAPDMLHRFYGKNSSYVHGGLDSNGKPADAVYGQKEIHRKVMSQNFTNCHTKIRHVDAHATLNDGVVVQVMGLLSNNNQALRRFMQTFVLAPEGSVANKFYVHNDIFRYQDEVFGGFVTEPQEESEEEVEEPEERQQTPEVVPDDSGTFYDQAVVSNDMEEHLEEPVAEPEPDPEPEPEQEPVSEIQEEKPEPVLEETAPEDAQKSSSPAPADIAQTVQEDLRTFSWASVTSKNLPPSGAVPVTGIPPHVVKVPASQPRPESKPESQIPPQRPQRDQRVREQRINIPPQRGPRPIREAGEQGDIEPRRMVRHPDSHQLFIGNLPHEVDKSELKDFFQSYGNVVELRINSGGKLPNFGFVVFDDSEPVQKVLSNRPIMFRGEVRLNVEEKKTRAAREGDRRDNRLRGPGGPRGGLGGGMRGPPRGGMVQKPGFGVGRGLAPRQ
Chain of UniProt Q9NWS0 (whole entry, looked up): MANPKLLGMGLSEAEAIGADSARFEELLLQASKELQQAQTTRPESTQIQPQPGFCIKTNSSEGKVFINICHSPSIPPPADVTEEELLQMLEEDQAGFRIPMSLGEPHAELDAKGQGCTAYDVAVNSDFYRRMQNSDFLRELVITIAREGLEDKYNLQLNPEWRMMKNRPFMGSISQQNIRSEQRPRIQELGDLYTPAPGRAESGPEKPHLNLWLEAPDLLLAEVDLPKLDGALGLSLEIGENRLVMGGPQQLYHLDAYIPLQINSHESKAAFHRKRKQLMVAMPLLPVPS
Chain of UniProt O95619 (whole entry, looked up): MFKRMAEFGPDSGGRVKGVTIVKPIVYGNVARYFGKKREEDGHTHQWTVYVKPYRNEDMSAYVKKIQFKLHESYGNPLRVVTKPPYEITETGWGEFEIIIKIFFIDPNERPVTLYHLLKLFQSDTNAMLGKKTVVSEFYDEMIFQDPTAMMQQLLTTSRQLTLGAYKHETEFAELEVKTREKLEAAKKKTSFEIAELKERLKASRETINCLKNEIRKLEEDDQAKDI
Chain of UniProt P53299 (whole entry, looked up): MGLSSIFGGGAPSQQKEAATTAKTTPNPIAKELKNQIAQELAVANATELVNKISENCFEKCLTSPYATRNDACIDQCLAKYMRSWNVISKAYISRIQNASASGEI

| Substance | partner | assay | system | setting | Kd |
| --- | --- | --- | --- | --- | --- |
| EEEWAREFGAQLRRAADDLNAQYERRR (PUMA residues 130-156 M144A/I137F; N-acetyl, C-terminal amide) | Mcl1 152-308 | SPR | peptide | – | 0.0177 ± 0.0043 µM |
| SDLACRLLGQSMDESGLPQLTSYDCEVNAPIQGSGSGSGSGSRNLLQGEELLRALDQVN (HIF1A 776-826 807-811 replaced by (GS)4 (Homo sapiens, UniProt Q16665); sequence looked up) | Crebbp | fluorescence polarisation | – | – | 0.16 µM |
| SSASSEDYIIILPECFDTSRPLGDS (NBR1 725-749 (UniProt Q14596); FITC label) | RB1CC1 1490-1594 (Homo sapiens, UniProt Q8TDY2) | FP | peptide | – | 16.7 ± 3.22 µM |
| GPGTPTRSSVITSARELHYG (ZBTB16 residues 279-298 (Homo sapiens)) | IRF2BP2 | ITC | peptide | – | 7.6 µM and 8.58 µM and 5.44 µM |
| SIFDDDMDDIFSSG (WASHC2A 1289-1302 (Homo sapiens)) | SNX27 fragment (Homo sapiens) | ITC | peptide | – | 25.6 ± 0.35 µM |
| GCAPMGWRQAMRCKQDSDCLAGCVCGPNGFCG (C3.P1 peptide) | C3 mature (UniProt P01024) | SPR | peptide | – | 0.727 µM |
| TSLFEEDEEDDLFAIAK (WASHC2A 662-678 (Homo sapiens)) | SNX27 fragment (Homo sapiens) | ITC | peptide | – | 42.5 ± 2.97 µM |
| ANGNANEENGEQEADNEVD (PTMA 35-53, isoform 2; N-acetyl, C-terminal amide) | KEAP1 | ITC | peptide | – | 2.93 µM |
| PRPRPRPRPRPRPRPRPRPRPRPRPRPRPRPRPRPRPRPRPRPRPRPRPRPRPRPRPRPR (poly-PR 30 repeats) | G3BP1 143-226 (Homo sapiens, UniProt Q13283) | BLI | peptide | – | 0.00069 µM |
| SHQKVTLLQLLLGHKNEEN (NRIP1 peptide; N-terminal 5-FAM) | PPARG 202-477 (Homo sapiens, UniProt P37231-2) | FP | peptide | – | 0.272 µM |
| RASVIKKT (IRF2 residues 331-338 (Homo sapiens)) | IRF2BP2 | ITC | peptide | – | 7.44 µM and 6.05 µM |
| RPNESDSDDLDDY (ECD 499-510 (Homo sapiens); pS505) | PIH1D1 1-180 (Homo sapiens, UniProt Q9NWS0) | ITC | peptide | – | 16.1 µM |
| NPFPLLEDEDDLFTDQK (WASHC2A 1197-1213 (Homo sapiens)) | SNX27 (Homo sapiens, UniProt Q96L92-3) | ITC | peptide | – | 70.55 ± 0.64 µM |
| ATGGVKKPHRY (Histone H3.1 32-42 (Homo sapiens, UniProt P68431); sequence looked up) | YEATS4 19-159 (Homo sapiens, UniProt O95619) | ITC | peptide | together with: histone H3 peptide | 950 ± 25 µM |
| SDLACRLLGQSMDESGLPQLTSYDCEVNAPIQGSGSGSGSRNLLQGEELLRALDQVN (HIF1A 776-826 807-811 replaced by (GS)3 (Homo sapiens, UniProt Q16665); sequence looked up) | Crebbp | fluorescence polarisation | – | – | 0.13 µM |
| PSSTMGQVGRQLAIIGDDINRRYDS (BAK1 BH3 peptide (Homo sapiens); N-acetyl, C-terminal amide) | BCL2L1 | ITC | peptide | – | 0.028 µM |
| EEEWAREIGAQLRRAGDDLNAQYERRR (PUMA residues 130-156 M144A/A145G; N-acetyl, C-terminal amide) | Mcl1 152-308 | SPR | peptide | – | 0.00024 ± 6e-05 µM |
| SSFKYL (designed peptide; FITC label) | NHERF2 142-254 (Homo sapiens, UniProt Q15599-1) | fluorescence intensity change, fluorescence titration | peptide | – | 212 µM |
| YIKTPLGTFPNRHGC (engineered peptide) | VPS29/VPS35 full length heterodimer (Homo sapiens) | ITC | peptide | – | 0.09 ± 0.003 µM |

| Substance | partner | assay | system | setting | Kd |
| --- | --- | --- | --- | --- | --- |
| RVYPVSVPYSSAQSTSKTSVTLSLVMPSQ (Tab1 residues 384-412 (Mus musculus)) | Mapk14 (Mus musculus, UniProt P47811) | ITC | peptide | – | 2.9 µM |
| HRK BH3 peptide, N-acetyl, C-terminal amide (Homo sapiens) (sequence not shown) | BCL2L1 | ITC | – | – | 0.03 µM |
| Histone H3.1 fragment (Homo sapiens) (sequence not shown) | WDR5 fragment Y131A (Homo sapiens) | ITC | – | – | 22.8 ± 2.22 µM |
| FAQLQLDPETGEFLPIQPAQ (NFE2L2 71-90 E78P; N-acetyl, C-terminal amide) | KEAP1 | ITC | peptide | – | 0.006 µM |
| YLPTITGVGHLWHPLC (engineered peptide) | VPS35/VPS26A/VPS29 retromer complex (Homo sapiens) | ITC | peptide | – | 0.852 ± 0.014 µM |
| GRGRGRGRGRGRGRGRGRGRGRGRGRGRGRGRGRGRGRGRGRGRGRGRGRGRGRGRGRGR (poly-GR 30 repeats) | G3BP1 (Homo sapiens, UniProt Q13283) | BLI | peptide | – | 0.00597 ± 4e-05 µM |
| KRRQTTITSHFHSKR (CDKN1A/DNMT1 chimeric PIP-box peptide; C-terminal amide) | PCNA | SPR | peptide | – | 0.106 µM |
| DLDSDDEY (TELO2 488-494 (Homo sapiens); pS491) | PIH1D1 51-180 (Homo sapiens, UniProt Q9NWS0) | ITC | peptide | – | 10.3 µM |
| SLEEPHSPETGEKVVAGEVN (AMER1 280-299) | KEAP1 | ITC | peptide | – | 1.6 µM |
| NLFDDNIDIFADLT (WASHC2A 1261-1274 (Homo sapiens)) | SNX27 K501D (Homo sapiens) | ITC | peptide | – | 38.8 ± 0.28 µM |
| YWISNSWTTYRYVSTC (engineered peptide) | VPS26A/VPS35 VPS35  subcomplex (Homo sapiens) | ITC | peptide | – | 0.3 ± 0.007 µM |
| KRRQKRITEYYHSKR (designed peptide; C-terminal amide) | PCNA | SPR | designed binder | – | 0.0067 µM |
| GLFSDEEDSEDLFSSQS (WASHC2A 536-552 (Homo sapiens)) | SNX27 (Homo sapiens, UniProt Q96L92-3) | ITC | peptide | – | 23.6 ± 2.19 µM |
| RGSVITSA (Zbtb16 residues 285-292 (Mus musculus)) | IRF2BP2 | ITC | peptide | – | 18.9 µM and 19.1 µM |
| KRGWTDDLCYGTGA (TIM23 91-103 (Saccharomyces cerevisiae)) | Tim13 (Saccharomyces cerevisiae, UniProt P53299) | SPR | peptide | – | 613 µM |
| FAQLQLDEETGEFLPIQPAQ (NFE2L2 71-90; N-acetyl, C-terminal amide) | KEAP1 | ITC | peptide | – | 0.024 µM |
| KRRQTSMEDFYHSKR (CDKN1A residues 141-155 T148E; C-terminal amide) | PCNA | SPR | peptide | – | 0.0774 µM |
| FSIVGTTYPINC (GABRA3 peptide 368-379 N369S) | Gphn (Rattus norvegicus, UniProt Q03555) | competition titration, magnetic tweezers | peptide | – | 7.92 µM |

For quick reference, copied from above:
| Substance | partner | assay | system | setting | Kd |
| --- | --- | --- | --- | --- | --- |
| SDLACRLLGQSMDESGLPQLTSYDCEVNAPIQGSGSGSGSGSRNLLQGEELLRALDQVN (HIF1A 776-826 807-811 replaced by (GS)4 (Homo sapiens, UniProt Q16665); sequence looked up) | Crebbp | fluorescence polarisation | – | – | 0.16 µM |
| ANGNANEENGEQEADNEVD (PTMA 35-53, isoform 2; N-acetyl, C-terminal amide) | KEAP1 | ITC | peptide | – | 2.93 µM |
| RASVIKKT (IRF2 residues 331-338 (Homo sapiens)) | IRF2BP2 | ITC | peptide | – | 7.44 µM and 6.05 µM |
